Published values gathered from unrelated publications.
Each line is one published result; not all experiments were run side by side. ± gives the spread as reported.
sdiA: Regulatory protein SdiA (sdiA, Escherichia coli, UniProt P07026)
Chain of UniProt P07026 (whole entry, looked up): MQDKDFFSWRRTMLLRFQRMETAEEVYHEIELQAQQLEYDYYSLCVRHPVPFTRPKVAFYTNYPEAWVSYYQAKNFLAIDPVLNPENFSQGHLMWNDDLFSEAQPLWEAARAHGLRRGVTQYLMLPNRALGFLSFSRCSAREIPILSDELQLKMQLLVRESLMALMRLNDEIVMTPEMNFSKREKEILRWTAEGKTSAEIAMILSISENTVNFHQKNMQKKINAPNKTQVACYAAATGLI
ADCYAP1R1 del89-109: Pituitary adenylate cyclase-activating polypeptide type I receptor (ADCYAP1R1, Homo sapiens, UniProt P41586, del89-109)
Chain of UniProt P41586 (whole entry, unmodified, looked up): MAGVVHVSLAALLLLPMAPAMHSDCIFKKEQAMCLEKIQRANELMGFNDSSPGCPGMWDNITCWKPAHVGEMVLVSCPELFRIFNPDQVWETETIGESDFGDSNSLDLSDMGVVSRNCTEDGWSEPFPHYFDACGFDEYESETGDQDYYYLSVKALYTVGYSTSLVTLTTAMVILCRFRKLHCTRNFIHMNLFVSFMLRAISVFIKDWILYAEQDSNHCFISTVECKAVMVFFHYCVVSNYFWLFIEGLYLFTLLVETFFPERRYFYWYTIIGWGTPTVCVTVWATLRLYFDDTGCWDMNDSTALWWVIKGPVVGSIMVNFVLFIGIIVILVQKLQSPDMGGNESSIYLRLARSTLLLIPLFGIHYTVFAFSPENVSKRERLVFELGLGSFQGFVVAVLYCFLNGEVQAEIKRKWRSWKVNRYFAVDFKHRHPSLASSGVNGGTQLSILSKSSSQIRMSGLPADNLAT
Chain of UniProt P41595 (whole entry, looked up): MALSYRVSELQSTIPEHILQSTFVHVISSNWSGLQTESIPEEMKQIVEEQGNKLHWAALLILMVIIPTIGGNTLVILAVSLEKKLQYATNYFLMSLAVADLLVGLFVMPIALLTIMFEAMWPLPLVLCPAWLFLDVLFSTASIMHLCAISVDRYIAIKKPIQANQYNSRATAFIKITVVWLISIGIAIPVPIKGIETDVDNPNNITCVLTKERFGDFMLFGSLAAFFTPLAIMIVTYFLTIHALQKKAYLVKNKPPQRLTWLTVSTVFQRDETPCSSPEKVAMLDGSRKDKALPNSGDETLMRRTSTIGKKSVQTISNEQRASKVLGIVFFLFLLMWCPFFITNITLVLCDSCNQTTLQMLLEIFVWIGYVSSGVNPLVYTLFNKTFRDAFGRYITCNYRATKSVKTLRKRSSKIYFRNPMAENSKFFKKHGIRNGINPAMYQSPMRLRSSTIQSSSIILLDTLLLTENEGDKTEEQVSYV
Chain of UniProt P41143 (whole entry, unmodified, looked up): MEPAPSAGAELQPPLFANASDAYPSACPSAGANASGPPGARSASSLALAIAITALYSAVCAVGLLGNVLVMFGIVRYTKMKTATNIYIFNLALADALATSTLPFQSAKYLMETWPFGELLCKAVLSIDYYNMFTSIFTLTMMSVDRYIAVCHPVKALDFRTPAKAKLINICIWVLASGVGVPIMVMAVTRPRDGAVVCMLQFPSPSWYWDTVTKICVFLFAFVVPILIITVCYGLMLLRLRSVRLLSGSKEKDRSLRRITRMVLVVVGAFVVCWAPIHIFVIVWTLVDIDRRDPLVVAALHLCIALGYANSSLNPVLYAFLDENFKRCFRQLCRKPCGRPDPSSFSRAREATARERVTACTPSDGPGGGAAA
Chain of UniProt P28566 (whole entry, looked up): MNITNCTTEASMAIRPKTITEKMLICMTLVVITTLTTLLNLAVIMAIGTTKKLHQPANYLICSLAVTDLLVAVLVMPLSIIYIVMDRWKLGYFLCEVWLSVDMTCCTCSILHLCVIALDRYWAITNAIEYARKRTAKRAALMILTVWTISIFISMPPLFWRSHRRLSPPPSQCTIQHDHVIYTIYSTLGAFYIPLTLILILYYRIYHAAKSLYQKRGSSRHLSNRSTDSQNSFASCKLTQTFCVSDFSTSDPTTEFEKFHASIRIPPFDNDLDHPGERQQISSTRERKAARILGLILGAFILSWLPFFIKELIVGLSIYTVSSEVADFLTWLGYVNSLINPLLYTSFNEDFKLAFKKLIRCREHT
Chain of UniProt P11712 (whole entry, looked up): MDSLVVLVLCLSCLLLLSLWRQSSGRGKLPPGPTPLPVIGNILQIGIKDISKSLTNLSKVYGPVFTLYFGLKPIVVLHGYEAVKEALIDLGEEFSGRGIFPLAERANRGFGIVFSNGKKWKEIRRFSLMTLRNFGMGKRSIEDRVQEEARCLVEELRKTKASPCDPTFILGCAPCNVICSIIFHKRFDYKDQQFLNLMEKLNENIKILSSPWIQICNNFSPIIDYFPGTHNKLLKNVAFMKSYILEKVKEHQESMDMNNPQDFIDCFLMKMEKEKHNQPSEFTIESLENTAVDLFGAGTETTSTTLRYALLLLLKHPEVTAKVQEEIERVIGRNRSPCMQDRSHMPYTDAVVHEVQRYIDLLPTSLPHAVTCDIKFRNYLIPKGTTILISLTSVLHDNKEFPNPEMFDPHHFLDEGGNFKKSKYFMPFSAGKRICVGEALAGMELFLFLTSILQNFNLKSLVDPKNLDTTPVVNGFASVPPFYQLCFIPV
Chain of UniProt P50391 (whole entry, looked up): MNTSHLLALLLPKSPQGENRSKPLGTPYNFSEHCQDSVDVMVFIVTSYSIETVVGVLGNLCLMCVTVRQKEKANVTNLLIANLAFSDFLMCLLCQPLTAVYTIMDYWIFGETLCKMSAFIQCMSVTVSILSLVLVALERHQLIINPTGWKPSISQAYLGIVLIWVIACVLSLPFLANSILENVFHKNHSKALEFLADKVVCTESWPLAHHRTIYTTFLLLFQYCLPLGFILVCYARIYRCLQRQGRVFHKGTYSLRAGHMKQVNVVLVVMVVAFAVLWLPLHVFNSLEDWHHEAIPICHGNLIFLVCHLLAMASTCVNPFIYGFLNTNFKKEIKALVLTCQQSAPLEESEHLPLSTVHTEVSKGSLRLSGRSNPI
Chain of UniProt Q16853 (whole entry, looked up): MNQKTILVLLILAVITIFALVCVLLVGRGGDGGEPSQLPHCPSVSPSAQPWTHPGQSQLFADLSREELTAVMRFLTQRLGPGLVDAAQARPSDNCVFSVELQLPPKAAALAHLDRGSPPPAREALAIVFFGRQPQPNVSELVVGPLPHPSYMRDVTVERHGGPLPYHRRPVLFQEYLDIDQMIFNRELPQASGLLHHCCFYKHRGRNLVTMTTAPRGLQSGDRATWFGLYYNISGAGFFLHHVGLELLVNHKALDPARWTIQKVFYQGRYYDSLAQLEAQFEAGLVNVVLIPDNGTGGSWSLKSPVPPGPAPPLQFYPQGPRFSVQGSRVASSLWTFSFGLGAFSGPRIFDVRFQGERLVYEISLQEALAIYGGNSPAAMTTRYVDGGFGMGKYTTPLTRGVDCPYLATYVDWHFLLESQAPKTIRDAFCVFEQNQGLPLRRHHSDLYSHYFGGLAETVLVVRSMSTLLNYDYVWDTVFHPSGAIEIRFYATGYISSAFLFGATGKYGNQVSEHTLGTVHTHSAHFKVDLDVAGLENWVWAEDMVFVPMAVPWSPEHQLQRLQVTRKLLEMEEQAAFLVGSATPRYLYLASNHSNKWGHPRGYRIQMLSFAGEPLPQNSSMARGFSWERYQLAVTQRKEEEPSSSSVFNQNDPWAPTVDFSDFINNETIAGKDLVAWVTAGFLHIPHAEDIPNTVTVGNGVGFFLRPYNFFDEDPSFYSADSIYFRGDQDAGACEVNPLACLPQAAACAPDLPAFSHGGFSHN

Cc1ccc(N2CC3CC(C2)N3C)cc1C(=O)NC1(c2ccc3c4c(cccc24)C(=O)N3C)CC1 — IC50 (Cytochrome P450 2C9 (CYP2C9, Homo sapiens, UniProt P11712); enzyme activity, inhibitor): > 50000 nM
COc1ccc(CC(=O)N[C@H]2CCOC2=O)cc1 — EC50 (sdiA): 5 nM
CSCC[C@H](NC(=O)[C@H](CCC(N)=O)NC(=O)[C@H](CCCCN)NC(=O)[C@H](CCCNC(=N)N)NC(=O)[C@H](Cc1ccc(O)cc1)NC(=O)[C@H](CCCNC(=N)N)NC(=O)[C@H](CO)NC(=O)[C@H](Cc1ccc(O)cc1)NC(=O)[C@H](CO)NC(=O)[C@H](CC(=O)O)NC(=O)[C@@H](NC(=O)[C@@H](N)Cc1ccccc1)[C@@H](C)O)C(=O)N[C@@H](C)C(=O)N[C@H](C(=O)N[C@@H](CCCCN)C(=O)N[C@@H](CCCCN)C(=O)N[C@@H](Cc1ccc(O)cc1)C(=O)N[C@@H](CC(C)C)C(=O)N[C@@H](C)C(=O)N[C@@H](C)C(=O)N[C@H](C(=O)N[C@@H](CC(C)C)C(=O)NCC(=O)N[C@@H](CCCCN)C(=O)N[C@@H](CCCNC(=N)N)C(=O)N[C@@H](Cc1ccc(O)cc1)C(=O)N[C@@H](CCCCN)C(=O)N[C@@H](CCC(N)=O)C(=O)N[C@@H](CCCNC(=N)N)C(=O)N[C@H](C(=O)N[C@@H](CCCCN)C(=O)N[C@@H](CC(N)=O)C(=O)N[C@@H](CCCCn1cc(C[C@H](NC(=O)CNC(=O)[C@H](CO)NC(=O)[C@H](CCCNC(=N)N)NC(=O)[C@H](CO)NC(=O)[C@H](CC(C)C)NC(=O)[C@H](CC(C)C)NC(=O)CNC(=O)[C@H](C)NC(=O)[C@H](CC(C)C)NC(=O)[C@H](CCCNC(=N)N)NC(=O)[C@H](Cc2c[nH]cn2)NC(=O)[C@@H](NC(=O)[C@@H](N)C(C)C)[C@@H](C)O)C(=O)N[C@H](C(=O)N[C@H](C(=O)N[C@@H](CCCCN)C(=O)N[C@@H](CC(N)=O)C(=O)N[C@@H](CC(N)=O)C(=O)N[C@@H](Cc2ccccc2)C(=O)N[C@H](C(=O)N2CCC[C@H]2C(=O)N[C@H](C(=O)N[C@@H](CC(N)=O)C(=O)N[C@H](C(=O)NCC(=O)N[C@@H](CO)C(=O)N[C@@H](CCCCN)C(=O)N[C@@H](C)C(=O)N[C@@H](Cc2ccccc2)C(N)=O)C(C)C)[C@@H](C)O)C(C)C)C(C)C)C(C)C)nn1)C(N)=O)C(C)C)C(C)C)C(C)C — Kb (ADCYAP1R1 del89-109; cAMP, antagonist): > 10000 nM
CC(C)(C)C(=O)OCOP(=O)(OCOC(=O)C(C)(C)C)C1CCCN(O)C1=O (centres unmarked) — CC50 (NCI-H23): > 100000 nM
CSCC[C@H](NC(=O)[C@H](CCC(N)=O)NC(=O)[C@H](CCCCN)NC(=O)[C@H](CCCNC(=N)N)NC(=O)[C@H](Cc1ccc(O)cc1)NC(=O)[C@H](CCCNC(=N)N)NC(=O)[C@H](CO)NC(=O)[C@H](Cc1ccc(O)cc1)NC(=O)[C@H](CO)NC(=O)[C@H](CC(=O)O)NC(=O)[C@@H](NC(=O)[C@@H](N)Cc1ccccc1)[C@@H](C)O)C(=O)N[C@@H](C)C(=O)N[C@H](C(=O)N[C@@H](CCCCN)C(=O)N[C@@H](CCCCn1cc(C[C@H](NC(=O)CNC(=O)[C@H](CO)NC(=O)[C@H](CCCNC(=N)N)NC(=O)[C@H](CO)NC(=O)[C@H](CC(C)C)NC(=O)[C@H](CC(C)C)NC(=O)CNC(=O)[C@H](C)NC(=O)[C@H](CC(C)C)NC(=O)[C@H](CCCNC(=N)N)NC(=O)[C@H](Cc2c[nH]cn2)NC(=O)[C@@H](NC(=O)[C@@H](N)C(C)C)[C@@H](C)O)C(=O)N[C@H](C(=O)N[C@H](C(=O)N[C@@H](CCCCN)C(=O)N[C@@H](CC(N)=O)C(=O)N[C@@H](CC(N)=O)C(=O)N[C@@H](Cc2ccccc2)C(=O)N[C@H](C(=O)N2CCC[C@H]2C(=O)N[C@H](C(=O)N[C@@H](CC(N)=O)C(=O)N[C@H](C(=O)NCC(=O)N[C@@H](CO)C(=O)N[C@@H](CCCCN)C(=O)N[C@@H](C)C(=O)N[C@@H](Cc2ccccc2)C(N)=O)C(C)C)[C@@H](C)O)C(C)C)C(C)C)C(C)C)nn1)C(=O)N[C@@H](Cc1ccc(O)cc1)C(=O)N[C@@H](CC(C)C)C(=O)N[C@@H](C)C(=O)N[C@@H](C)C(=O)N[C@H](C(=O)N[C@@H](CC(C)C)C(=O)NCC(=O)N[C@@H](CCCCN)C(=O)N[C@@H](CCCNC(=N)N)C(=O)N[C@@H](Cc1ccc(O)cc1)C(=O)N[C@@H](CCCCN)C(=O)N[C@@H](CCC(N)=O)C(=O)N[C@@H](CCCNC(=N)N)C(=O)N[C@H](C(=O)N[C@@H](CCCCN)C(=O)N[C@@H](CC(N)=O)C(=O)N[C@@H](CCCCN)C(N)=O)C(C)C)C(C)C)C(C)C — Kb (ADCYAP1R1 (Homo sapiens, UniProt P41586); cAMP accumulation, antagonist; together with: PACAP-27): 138 nM
CCCCCCC(=O)N[C@H]1CCOC1=O — EC50 (sdiA): 2.64 nM
Cc1cc(O)cc(C)c1C[C@H](N)C(=O)N[C@H](CCCNC(=N)N)C(=O)N[C@@H](Cc1ccccc1)C(=O)N(C)CC(=O)N(C)Cc1cc(C(F)(F)F)cc(C(F)(F)F)c1 — EC50 (OPRD1 (Homo sapiens, UniProt P41143, H278A); agonist): 23 nM
O=C1NC2(CC2)COc2ncc(F)cc2[C@H]2COCCN2c2ccn3ncc1c3n2 — organ-to-body weight ratio (Sprague-Dawley rat, male, heart; oral, 2.5 mg/kg/day, 4 weeks dosing, end of recovery): 0.315 ± 0.013%
O[C@H]1[C@H](n2cnc3c(N[C@@H](C4CCC4)C4CC4)nc(I)nc32)[C@H]2C[C@@]2(C(F)F)[C@H]1O — Kb (HTR2B (Homo sapiens, UniProt P41595); calcium signal, antagonist): 3.3 nM
CC(=O)N[C@@H](CCCNC(=N)N)C(=O)N[C@@H](Cc1ccc(O)cc1)C(=O)N[C@@H](CCCNC(=N)N)C(=O)N[C@@H](CC(C)C)C(=O)N[C@@H](CCCNC(=N)NC(=O)NCCCCN)C(=O)N[C@@H](Cc1ccc(O)cc1)C(N)=O — Kb (NPY4R (Homo sapiens, UniProt P50391); β-arrestin-1 recruitment, antagonist; HEK293T-ARRB1; together with: 3 nM human pancreatic polypeptide): 3590 ± 429 nM
CSCC[C@H](NC(=O)[C@H](CCC(N)=O)NC(=O)[C@H](CCCCN)NC(=O)[C@H](CCCNC(=N)N)NC(=O)[C@H](Cc1ccc(O)cc1)NC(=O)[C@H](CCCNC(=N)N)NC(=O)[C@H](CO)NC(=O)[C@H](Cc1ccc(O)cc1)NC(=O)[C@H](CO)NC(=O)[C@H](CC(=O)O)NC(=O)[C@@H](NC(=O)[C@@H](N)Cc1ccccc1)[C@@H](C)O)C(=O)N[C@@H](C)C(=O)N[C@H](C(=O)N[C@@H](CCCCN)C(=O)N[C@@H](CCCCN)C(=O)N[C@@H](Cc1ccc(O)cc1)C(=O)N[C@@H](CC(C)C)C(=O)N[C@@H](C)C(=O)N[C@@H](C)C(=O)N[C@H](C(=O)N[C@@H](CC(C)C)C(=O)NCC(=O)N[C@@H](CCCCN)C(=O)N[C@@H](CCCNC(=N)N)C(=O)N[C@@H](Cc1ccc(O)cc1)C(=O)N[C@@H](CCCCN)C(=O)N[C@@H](CCC(N)=O)C(=O)N[C@@H](CCCCn1cc(C[C@H](NC(=O)CNC(=O)[C@H](CO)NC(=O)[C@H](CCCNC(=N)N)NC(=O)[C@H](CO)NC(=O)[C@H](CC(C)C)NC(=O)[C@H](CC(C)C)NC(=O)CNC(=O)[C@H](C)NC(=O)[C@H](CC(C)C)NC(=O)[C@H](CCCNC(=N)N)NC(=O)[C@H](Cc2c[nH]cn2)NC(=O)[C@@H](NC(=O)[C@@H](N)C(C)C)[C@@H](C)O)C(=O)N[C@H](C(=O)N[C@H](C(=O)N[C@@H](CCCCN)C(=O)N[C@@H](CC(N)=O)C(=O)N[C@@H](CC(N)=O)C(=O)N[C@@H](Cc2ccccc2)C(=O)N[C@H](C(=O)N2CCC[C@H]2C(=O)N[C@H](C(=O)N[C@@H](CC(N)=O)C(=O)N[C@H](C(=O)NCC(=O)N[C@@H](CO)C(=O)N[C@@H](CCCCN)C(=O)N[C@@H](C)C(=O)N[C@@H](Cc2ccccc2)C(N)=O)C(C)C)[C@@H](C)O)C(C)C)C(C)C)C(C)C)nn1)C(=O)N[C@H](C(=O)N[C@@H](CCCCN)C(=O)N[C@@H](CC(N)=O)C(=O)N[C@@H](CCCCN)C(N)=O)C(C)C)C(C)C)C(C)C — Kb (ADCYAP1R1 del89-109; cAMP accumulation, antagonist; together with: VIP): 10.2 nM
CSCC[C@H]1NC(=O)[C@H](Cc2ccccc2)NC(=O)[C@@H](NC(=O)[C@H](C)N)CSC(=O)[C@H](C(C)C)NC(=O)[C@H](Cc2ccccc2)NC1=O — EC50 (Histidine kinase AgrC (Listeria monocytogenes, UniProt A8E0G3)): 10.2 nM
Cc1ccc2c(n1)c(-c1cccc(S(C)(=O)=O)c1)c(C)n2C/C(F)=C/CN — IC50 (AOC3 (Homo sapiens, UniProt Q16853); enzyme activity, inhibitor, fluorescence): > 30000 nM
CN1CCC(c2c[nH]c3ccc(O)cc23)CC1 — Ki (HTR1E (Homo sapiens, UniProt P28566); binding): 0.182 nM

A few entries again:
CSCC[C@H]1NC(=O)[C@H](Cc2ccccc2)NC(=O)[C@@H](NC(=O)[C@H](C)N)CSC(=O)[C@H](C(C)C)NC(=O)[C@H](Cc2ccccc2)NC1=O — EC50 (Histidine kinase AgrC (Listeria monocytogenes, UniProt A8E0G3)): 10.2 nM
